Experimental data collected from several papers.
Compare with care: the assays were run in different laboratories. Numbers after ± are the reported error.
ilvC: Ketol-acid reductoisomerase (NADP(+)) (ilvC, Mycobacterium tuberculosis, UniProt P9WKJ7)
UniProt P9WKJ7, sequence (whole entry, looked up): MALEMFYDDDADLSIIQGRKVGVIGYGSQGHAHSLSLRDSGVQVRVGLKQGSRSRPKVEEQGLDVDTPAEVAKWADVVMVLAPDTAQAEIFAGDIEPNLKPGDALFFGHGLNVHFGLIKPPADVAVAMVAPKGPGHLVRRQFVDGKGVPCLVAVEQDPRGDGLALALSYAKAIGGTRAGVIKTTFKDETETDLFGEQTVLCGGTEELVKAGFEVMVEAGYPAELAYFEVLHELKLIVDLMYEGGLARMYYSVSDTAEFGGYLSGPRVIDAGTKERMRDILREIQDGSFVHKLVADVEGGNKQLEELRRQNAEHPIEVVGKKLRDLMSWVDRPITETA
BCHE: Cholinesterase (BCHE, Homo sapiens, UniProt P06276)
UniProt P06276, sequence (whole entry, looked up): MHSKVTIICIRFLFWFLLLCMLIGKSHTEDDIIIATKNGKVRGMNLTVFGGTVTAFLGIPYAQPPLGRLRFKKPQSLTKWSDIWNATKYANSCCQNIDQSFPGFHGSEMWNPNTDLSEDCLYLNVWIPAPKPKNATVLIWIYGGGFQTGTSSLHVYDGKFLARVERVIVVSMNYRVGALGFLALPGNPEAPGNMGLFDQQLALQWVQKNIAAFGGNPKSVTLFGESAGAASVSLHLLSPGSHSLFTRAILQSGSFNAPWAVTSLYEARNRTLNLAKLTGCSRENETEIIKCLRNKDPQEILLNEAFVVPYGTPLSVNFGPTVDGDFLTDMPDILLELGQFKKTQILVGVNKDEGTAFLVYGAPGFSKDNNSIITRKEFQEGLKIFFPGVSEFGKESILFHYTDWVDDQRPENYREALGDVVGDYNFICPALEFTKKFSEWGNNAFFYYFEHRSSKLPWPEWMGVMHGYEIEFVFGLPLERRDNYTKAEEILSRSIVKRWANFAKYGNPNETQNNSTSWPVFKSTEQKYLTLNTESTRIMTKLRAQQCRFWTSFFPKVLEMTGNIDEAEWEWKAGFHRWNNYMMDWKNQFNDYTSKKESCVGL
PGR: Progesterone receptor (PGR, Homo sapiens, UniProt P06401)
UniProt P06401, sequence (whole entry, looked up): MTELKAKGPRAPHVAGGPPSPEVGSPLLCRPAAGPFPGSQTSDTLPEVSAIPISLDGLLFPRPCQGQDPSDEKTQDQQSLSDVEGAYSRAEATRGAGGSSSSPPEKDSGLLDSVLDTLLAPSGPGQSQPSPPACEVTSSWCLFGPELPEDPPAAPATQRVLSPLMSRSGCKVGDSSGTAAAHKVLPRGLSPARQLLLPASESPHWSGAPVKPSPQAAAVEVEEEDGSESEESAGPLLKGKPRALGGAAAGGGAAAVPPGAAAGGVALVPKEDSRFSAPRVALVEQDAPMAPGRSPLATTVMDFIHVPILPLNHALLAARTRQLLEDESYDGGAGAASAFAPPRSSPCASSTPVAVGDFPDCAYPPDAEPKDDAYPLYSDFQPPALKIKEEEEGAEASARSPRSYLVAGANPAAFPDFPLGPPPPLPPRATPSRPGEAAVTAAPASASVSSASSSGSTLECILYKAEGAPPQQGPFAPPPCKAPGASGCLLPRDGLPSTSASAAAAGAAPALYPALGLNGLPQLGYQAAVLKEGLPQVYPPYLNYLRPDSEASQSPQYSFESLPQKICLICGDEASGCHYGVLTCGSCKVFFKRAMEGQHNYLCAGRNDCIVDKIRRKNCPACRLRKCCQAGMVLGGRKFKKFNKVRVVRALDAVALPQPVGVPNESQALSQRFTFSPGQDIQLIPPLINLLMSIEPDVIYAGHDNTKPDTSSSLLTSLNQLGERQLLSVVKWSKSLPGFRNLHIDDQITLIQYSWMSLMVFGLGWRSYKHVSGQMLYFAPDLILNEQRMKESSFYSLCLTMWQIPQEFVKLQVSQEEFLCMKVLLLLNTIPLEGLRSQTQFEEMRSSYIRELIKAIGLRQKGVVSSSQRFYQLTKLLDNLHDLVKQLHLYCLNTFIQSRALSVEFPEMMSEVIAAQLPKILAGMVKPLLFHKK
AMC9: Metacaspase-9 (AMC9, Arabidopsis thaliana, UniProt Q9FYE1)
UniProt Q9FYE1, sequence (whole entry, looked up): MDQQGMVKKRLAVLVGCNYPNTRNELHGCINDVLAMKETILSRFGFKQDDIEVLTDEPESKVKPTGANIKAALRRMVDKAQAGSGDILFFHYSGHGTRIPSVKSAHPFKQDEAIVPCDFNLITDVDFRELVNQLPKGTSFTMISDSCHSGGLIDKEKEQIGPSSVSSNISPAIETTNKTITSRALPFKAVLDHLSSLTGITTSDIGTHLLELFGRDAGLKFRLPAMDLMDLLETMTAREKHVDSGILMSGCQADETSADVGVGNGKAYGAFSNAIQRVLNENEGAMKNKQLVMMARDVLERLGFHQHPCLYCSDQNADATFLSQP
UniProt Q61327, sequence (whole entry, looked up): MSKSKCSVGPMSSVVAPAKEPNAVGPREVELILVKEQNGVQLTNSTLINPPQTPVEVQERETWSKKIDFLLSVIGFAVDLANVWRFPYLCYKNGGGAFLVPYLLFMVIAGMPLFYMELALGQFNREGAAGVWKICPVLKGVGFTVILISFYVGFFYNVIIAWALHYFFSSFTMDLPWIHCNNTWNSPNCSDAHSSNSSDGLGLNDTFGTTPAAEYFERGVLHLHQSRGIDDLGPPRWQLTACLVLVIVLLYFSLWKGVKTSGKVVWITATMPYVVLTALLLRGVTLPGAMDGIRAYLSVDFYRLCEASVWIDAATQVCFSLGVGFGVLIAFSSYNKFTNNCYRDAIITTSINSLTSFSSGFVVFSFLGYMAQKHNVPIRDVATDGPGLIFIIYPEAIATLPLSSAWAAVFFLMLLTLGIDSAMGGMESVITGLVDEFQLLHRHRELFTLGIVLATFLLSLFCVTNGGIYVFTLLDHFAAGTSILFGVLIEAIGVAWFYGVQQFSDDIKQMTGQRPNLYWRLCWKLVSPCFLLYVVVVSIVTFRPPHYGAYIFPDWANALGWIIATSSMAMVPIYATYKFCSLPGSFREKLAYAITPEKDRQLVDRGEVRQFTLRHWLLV
UniProt P18507, sequence (whole entry, looked up): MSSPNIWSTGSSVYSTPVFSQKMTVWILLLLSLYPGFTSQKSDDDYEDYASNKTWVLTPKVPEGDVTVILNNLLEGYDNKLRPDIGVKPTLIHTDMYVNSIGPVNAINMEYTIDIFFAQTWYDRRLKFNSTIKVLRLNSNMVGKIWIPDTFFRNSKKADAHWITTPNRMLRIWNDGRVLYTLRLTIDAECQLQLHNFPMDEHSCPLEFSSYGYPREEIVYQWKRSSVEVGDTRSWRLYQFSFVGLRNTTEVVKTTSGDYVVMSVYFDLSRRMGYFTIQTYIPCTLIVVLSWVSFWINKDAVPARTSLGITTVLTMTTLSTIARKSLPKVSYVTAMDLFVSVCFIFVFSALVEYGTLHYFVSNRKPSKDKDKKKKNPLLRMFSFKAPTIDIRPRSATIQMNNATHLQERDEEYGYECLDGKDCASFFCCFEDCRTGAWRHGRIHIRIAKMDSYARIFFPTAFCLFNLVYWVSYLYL
UniProt Q96P56, sequence (whole entry, looked up): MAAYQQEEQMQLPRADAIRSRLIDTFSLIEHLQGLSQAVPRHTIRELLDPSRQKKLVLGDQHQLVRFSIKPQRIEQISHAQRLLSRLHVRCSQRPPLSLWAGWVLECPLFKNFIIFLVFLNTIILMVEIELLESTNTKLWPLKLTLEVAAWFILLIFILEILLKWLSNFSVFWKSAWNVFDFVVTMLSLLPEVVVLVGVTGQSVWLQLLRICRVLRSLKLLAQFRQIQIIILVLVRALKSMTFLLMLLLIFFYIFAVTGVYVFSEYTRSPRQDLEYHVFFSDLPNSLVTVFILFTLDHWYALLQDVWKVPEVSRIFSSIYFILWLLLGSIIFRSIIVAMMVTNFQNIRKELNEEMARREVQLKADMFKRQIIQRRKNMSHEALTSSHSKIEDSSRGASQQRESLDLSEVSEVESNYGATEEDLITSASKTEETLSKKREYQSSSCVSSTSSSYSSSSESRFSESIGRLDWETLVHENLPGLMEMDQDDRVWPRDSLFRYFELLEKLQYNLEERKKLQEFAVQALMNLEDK
UniProt P08173, sequence (whole entry, looked up): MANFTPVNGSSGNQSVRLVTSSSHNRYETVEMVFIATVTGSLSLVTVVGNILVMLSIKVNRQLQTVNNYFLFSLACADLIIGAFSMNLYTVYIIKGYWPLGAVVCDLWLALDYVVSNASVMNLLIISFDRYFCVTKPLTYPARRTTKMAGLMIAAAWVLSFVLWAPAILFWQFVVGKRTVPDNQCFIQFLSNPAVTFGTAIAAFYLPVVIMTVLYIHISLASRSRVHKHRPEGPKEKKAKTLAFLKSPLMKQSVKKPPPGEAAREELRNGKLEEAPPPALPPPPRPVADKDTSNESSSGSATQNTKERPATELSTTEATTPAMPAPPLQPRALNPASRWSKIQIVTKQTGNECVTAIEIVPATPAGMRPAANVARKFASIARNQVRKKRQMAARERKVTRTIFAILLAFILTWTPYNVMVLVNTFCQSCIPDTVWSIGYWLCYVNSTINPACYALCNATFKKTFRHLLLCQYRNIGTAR
UniProt P18825, sequence (whole entry, looked up): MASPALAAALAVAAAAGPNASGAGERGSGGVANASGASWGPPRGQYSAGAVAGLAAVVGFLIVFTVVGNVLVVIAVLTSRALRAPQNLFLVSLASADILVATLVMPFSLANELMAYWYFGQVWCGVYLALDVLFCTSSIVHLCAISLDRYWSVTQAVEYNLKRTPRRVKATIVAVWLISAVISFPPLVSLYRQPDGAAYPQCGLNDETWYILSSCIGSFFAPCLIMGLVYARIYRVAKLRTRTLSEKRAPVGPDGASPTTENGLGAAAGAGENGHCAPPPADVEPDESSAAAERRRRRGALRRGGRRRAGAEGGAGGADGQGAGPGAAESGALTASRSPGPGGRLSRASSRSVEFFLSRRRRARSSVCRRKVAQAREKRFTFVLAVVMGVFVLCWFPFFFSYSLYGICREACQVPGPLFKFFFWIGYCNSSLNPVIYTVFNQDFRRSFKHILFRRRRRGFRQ

SMILES	target	test	test system	setting	endpoint	result
O=c1[nH]c2sc(-c3cccnc3)nc2c(=O)n1O	ilvC	inhibitor	–	30 min preincubation, added: NADPH	Ki	18300 ± 2300 nM
CCCCCc1cc(O)c2c(c1)OC(C)(C)[C@@H]1CCC(C)=C[C@@H]21	CatSper channel complex (Homo sapiens, UniProt Q7RTX7+Q86XQ3+Q8NEC5+Q96P56)	intracellular Ca2+ increase, agonist, Fluo-4 fluorimetry	human sperm	–	EC50	1030 ± 1200 nM
NCCc1ccc(Oc2ccc(O)cc2)c(I)c1	Slc6a3 (Mus musculus, UniProt Q61327)	dopamine uptake, inhibitor	TAAR1 knock-out mice, striatal synaptosomes	added: [3H]dopamine 10 nM	IC50	1200 ± 400 nM
COc1ccc2c(c1)[C@]13CCCC[C@@H]1[C@H](C2)N(C)CC3	ADRA2C (Homo sapiens, UniProt P18825)	inhibitor	–	–	IC50	10600 nM
CCCc1cc(O)c2c(c1)OC(C)(C)[C@@H]1CCC(C)=C[C@@H]21	TRPV3 (Homo sapiens, UniProt Q8NET8, S444L)	calcium uptake, agonist	HEK293S	mutant S444L, site 2	EC50	3890 ± 580 nM
O=c1[nH]c2ncsc2c(=O)n1O	ilvC	inhibitor	–	30 min preincubation, added: NADPH	Ki	300 ± 40 nM
CCCCCCC[N+](CC)(CC)CCCCc1ccc(Cl)cc1	BCHE	inhibitor	–	–	IC50	7690 nM
CC(=O)[C@@]1(O)CC[C@H]2[C@@H]3C=C(Cl)C4=CC(=O)[C@@H]5C[C@@H]5[C@]4(C)[C@H]3CC[C@@]21C	PGR	receptor activity	–	–	EC50	3 nM
Cc1cc2[nH]c(=O)n(O)c(=O)c2o1	ilvC	inhibitor	–	30 min preincubation, added: NADPH	Ki	166000 ± 61500 nM
O=C1NCc2c1c1c3ccccc3[nH]c1c1[nH]c3ccccc3c21	BCHE	inhibitor	–	–	IC50	1660 ± 110 nM
O=c1[nH]c2nc(-c3ccccc3)sc2c(=O)n1O	ilvC	inhibitor	–	30 min preincubation, added: NADPH	Ki	50 ± 5 nM
COc1c(Cl)cc(Cl)cc1/C=N/NC(=O)c1ccncc1	Gag-Pol polyprotein, integrase (gag-pol, Human immunodeficiency virus 1, UniProt P12497)	3'-processing activity, inhibitor	–	wild-type integrase	IC50	> 100000 nM
COc1cc(C=C2C(=O)NC(=S)N(c3cccc(Cl)c3)C2=O)cc(Br)c1O	AMC9	enzyme activity, inhibitor	–	pH 5.5, added: VRPR-AMC 50 µM	IC50	25000 nM
Cc1nc2c(=O)n(O)c(=O)[nH]c2s1	ilvC	inhibitor	–	30 min preincubation, added: NADPH	Ki	158000 ± 44400 nM
COC(=O)[C@@H](NC(=O)c1nn(Cc2ccc(F)cc2)c2ccccc12)C(C)(C)C	CNR1 (Homo sapiens, UniProt P21554)	radioligand displacement	–	without NaCl, added: [3H]SR141716	IC50	21.3 nM
Clc1cccc(N2CCNCC2)c1Cl	CHRM4 (Homo sapiens, UniProt P08173)	ERK1/2 phosphorylation, agonist	CHO cells	–	EC50	> 20000 nM
C=C1C[C@@H]2[C@H](CC[C@]3(C)C(=O)CC[C@@H]23)[C@@]2(C)C=CC(=O)C=C12	PGR	inhibitor	–	–	IC50	29300 nM
O=C(N[C@H](Cc1ccccc1)C(=O)Nc1ccccc1N1CCOCC1)c1cccs1	DNA-directed RNA polymerase subunit beta' / DNA-directed RNA polymerase subunit beta (Mycobacterium tuberculosis, UniProt P9WGY7+P9WGY9)	–	–	–	IC50	290 nM
CCc1nc2[nH]c(=O)n(O)c(=O)c2s1	ilvC	inhibitor	–	30 min preincubation, added: NADPH	Ki	370 ± 30 nM
Brc1ccc2c(c1)C(c1ccccn1)=NCc1c(-c3cnco3)ncn1-2	GABRG2/GABRA3, with β3 subunit (Homo sapiens, UniProt P18507+P34903)	–	–	–	IC50	381 nM
CCC(=O)[C@@]1(C)[C@H](C)C[C@H]2[C@@H]3CCC4=CC(=O)C=C[C@]4(C)[C@H]3[C@@H](O)C[C@@]21C	PGR	agonist	–	–	EC50	3 nM
CO[C@H]1[C@H](O[C@H]([C@H]2O[C@@H](n3ccc(=O)[nH]c3=O)[C@H](O)[C@@H]2O)[C@H](NCCCNC(=O)[C@@H](NC(=O)[C@@H](NC(=O)N[C@H](C(=O)O)C(C)C)[C@@H]2CCN=C(N)N2)[C@@H](O)C(C)C)C(=O)O)O[C@H](CN)[C@H]1O	MurX, Mycolicibacterium smegmatis	enzyme activity, inhibitor	P-60 membrane fraction	–	IC50	350 ± 8 nM
O=C1NC(=S)N(c2ccccc2)C(=O)C1=Cc1ccc(-c2ccc(C(=O)O)c(Cl)c2)o1	AMC9	enzyme activity, inhibitor	–	pH 5.5, added: VRPR-AMC 50 µM	IC50	24000 nM
CCC(=O)O[C@H]1CC[C@H]2[C@@H]3CCC4=CC(=O)CC[C@]4(C)[C@H]3CC[C@]12C	PGR	agonist	–	–	EC50	328 nM
O=C1NC(=S)N(c2ccccc2)C(=O)C1=Cc1ccc(O)cc1	AMC9	enzyme activity, inhibitor	–	pH 5.5, added: VRPR-AMC 50 µM	IC50	31000 nM
O=c1[nH]c2nc(-c3cccnc3)sc2c(=O)n1O	ilvC	inhibitor	–	30 min preincubation, added: NADPH	Ki	190 ± 20 nM
CCCN(C)c1ccc(CN2CCC(COc3cccc(C(=O)N4CCOCC4)c3)CC2)cc1	1,4-dihydroxy-2-naphthoate octaprenyltransferase (Mycobacterium tuberculosis, UniProt P9WIP3)	enzyme activity, inhibitor	–	–	IC50	no inhibition

For quick reference, copied from above:
SMILES	target	test	test system	setting	endpoint	result
O=c1[nH]c2nc(-c3cccnc3)sc2c(=O)n1O	ilvC	inhibitor	–	30 min preincubation, added: NADPH	Ki	190 ± 20 nM
O=C1NC(=S)N(c2ccccc2)C(=O)C1=Cc1ccc(-c2ccc(C(=O)O)c(Cl)c2)o1	AMC9	enzyme activity, inhibitor	–	pH 5.5, added: VRPR-AMC 50 µM	IC50	24000 nM
